Results from different studies.
Each numbered part is a random draw from the data of one study; scales do not carry over between parts. Positions count from the first letter of the parent shown.

Series 1
Target: CEP164, C-terminal peptide (human)
Technique: DHFR complementation, deep sequencing
Sample: yeast
Notes: single substitutions, model-inferred values
Baseline: wild type
Reading: higher = weaker binding
Endpoint: binding free energy change
Starting sequence: PDZK1, PDZ domain 2 (human); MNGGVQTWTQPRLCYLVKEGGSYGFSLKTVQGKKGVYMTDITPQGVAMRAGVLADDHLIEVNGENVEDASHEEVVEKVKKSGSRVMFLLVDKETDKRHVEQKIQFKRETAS; partner HNRVKVYRF
Change = F105R; value = -0.251 kcal/mol
Change = G20A; value = 0.186 kcal/mol
Change = N2A; value = -0.0989 kcal/mol
Change = L13M; value = 0.000895 kcal/mol
Change = Q104H; value = -0.101 kcal/mol
Change = A54P; value = -0.181 kcal/mol
Change = Q10L; value = 0.353 kcal/mol
Change = K33Q; value = -0.0294 kcal/mol
Change = M86C; value = -0.141 kcal/mol
Change = Y23S; value = 1.48 kcal/mol
Change = K79V; value = 0.0357 kcal/mol
Change = N62K; value = 0.655 kcal/mol
Change = V52Y; value = 1.1 kcal/mol
Change = V75A; value = 1.08 kcal/mol
Change = Q31V; value = -0.263 kcal/mol
Change = N62R; value = 1.05 kcal/mol
Change = A54F; value = 0.409 kcal/mol
Change = W8P; value = -0.0975 kcal/mol
Change = T42M; value = -0.0558 kcal/mol
Change = A110Q; value = -0.106 kcal/mol
Change = L89P; value = 1.23 kcal/mol
Change = L89E; value = 1.35 kcal/mol
Change = T94F; value = -0.0618 kcal/mol
Change = S83C; value = -0.413 kcal/mol
Change = Q31E; value = -0.322 kcal/mol

Series 2
Target: CCNB1, cyclin fold, Cln2 fusion (human)
Technique: yeast growth competition, sequencing
Sample: yeast
Notes: weak parent motif
Baseline: not given
Reading: higher = stronger binding
Endpoint: normalised enrichment score
Starting sequence: USP37 docking peptide (human); PSAKRSLGFLPQP
Change = S2A; value = 0.295
Change = S6A; value = 0.351
Change = Q12A; value = 0.544
Change = L10A; value = 0.0733
Change = P1A; value = 0.159
Change = G8A; value = -0.0913

Series 3
Target: Interferon regulatory factor 5, full length, phosphomimetic (IRF5, Homo sapiens, UniProt Q13568-2, residues 1-514, K96S/S451D/S453D/S456D/S462D)
Technique: protein-binding microarray
Form: double-stranded DNA, one strand shown
Sample: in vitro
Tested at: 250 nM
Notes: 60-bp whole probe
Added: salmon DNA 0.4 mg/ml
Baseline: random background probes
Reading: higher = stronger binding
Endpoint: log fluorescence
All sequences stand within: GCCTAGCAC … GTCTTGATTCGCTTGACGCTGCTG
Strand = CACATTGTGCAATCTTAATAAGTGCTA; value = 0.482 z-score
Strand = TAAGATCTCAGACTGGATTAGTGCTAG; value = -0.407 z-score
Strand = AGATTTTTTTTCCTAATTGAGTGCTAG; value = 0.8 z-score
Strand = TCACATTTGGAAAATGTAACTGTGCTA; value = 0.391 z-score
Strand = GACGCTTTCGGGACTGGGGACGTGCTA; value = 5.81 z-score
Strand = GACGATATCCGGTATCGAGACGTGCTA; value = 1.61 z-score
Strand = TGAGGTATCGGGTATCGGTTAGTGCTA; value = 5.58 z-score
Strand = GACGCTTTCGGGTTTCGGGACGTGCTA; value = 8.56 z-score
Strand = CTTTTTTTCTTTTATTAGTGGTGCTAG; value = 1.71 z-score
Strand = TCATTTCCCAAGTTTATAACTGTGCTA; value = 0.58 z-score
Strand = TTAGATAACAGACTGGATTAGTGCTAG; value = -0.0146 z-score
Strand = TTAGGTCTCCTTCTCCTGTAGTGCTAG; value = -0.124 z-score
Strand = TCATTTCTCTATTGCTTACTGTGCTAG; value = 1.88 z-score
Strand = GACGTACTGGGTCTCGGGACGTGCTAG; value = -0.56 z-score
Strand = TCATATTTAGAACTTCTCACTGTGCTA; value = 0.693 z-score
Strand = TCACAACTCGCCTTTTTTACTGTGCTA; value = 0.502 z-score
Strand = GACGGTCTCGGTTTCTGGACGTGCTAG; value = 0.887 z-score

Series 4
Target: Sal-like protein 4, full length isoform A (SALL4, Homo sapiens, UniProt Q9UJQ4, residues 1-1053)
UniProt Q9UJQ4, sequence (whole entry, looked up): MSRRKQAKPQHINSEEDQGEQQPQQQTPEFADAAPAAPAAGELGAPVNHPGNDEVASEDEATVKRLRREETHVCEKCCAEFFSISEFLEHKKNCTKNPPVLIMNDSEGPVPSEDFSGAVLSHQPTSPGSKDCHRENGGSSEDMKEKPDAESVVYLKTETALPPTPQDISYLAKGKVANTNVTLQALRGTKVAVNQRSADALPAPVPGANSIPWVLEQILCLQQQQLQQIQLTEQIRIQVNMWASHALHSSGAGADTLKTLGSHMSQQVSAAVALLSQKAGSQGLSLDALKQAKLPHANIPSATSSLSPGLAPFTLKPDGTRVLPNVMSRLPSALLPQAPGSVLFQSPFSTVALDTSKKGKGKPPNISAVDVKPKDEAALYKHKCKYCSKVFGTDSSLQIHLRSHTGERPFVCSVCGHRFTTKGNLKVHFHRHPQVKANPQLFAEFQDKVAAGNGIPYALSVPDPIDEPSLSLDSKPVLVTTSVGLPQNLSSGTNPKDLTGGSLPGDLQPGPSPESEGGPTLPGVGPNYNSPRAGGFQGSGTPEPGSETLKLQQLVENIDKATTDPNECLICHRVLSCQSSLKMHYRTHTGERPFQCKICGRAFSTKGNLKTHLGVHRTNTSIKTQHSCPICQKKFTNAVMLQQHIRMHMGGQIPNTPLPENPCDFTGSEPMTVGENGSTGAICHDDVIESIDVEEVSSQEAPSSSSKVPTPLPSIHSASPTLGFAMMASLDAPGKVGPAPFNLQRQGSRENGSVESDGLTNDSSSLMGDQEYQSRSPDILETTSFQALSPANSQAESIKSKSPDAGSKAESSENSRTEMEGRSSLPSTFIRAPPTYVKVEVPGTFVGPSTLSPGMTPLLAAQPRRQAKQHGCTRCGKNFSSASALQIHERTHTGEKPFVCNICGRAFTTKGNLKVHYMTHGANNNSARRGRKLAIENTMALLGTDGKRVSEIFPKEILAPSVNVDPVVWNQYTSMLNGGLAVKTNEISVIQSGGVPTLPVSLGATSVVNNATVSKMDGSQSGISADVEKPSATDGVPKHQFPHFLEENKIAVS
Technique: universal PBM
Form: double-stranded DNA, one strand shown
Sample: in vitro
Tested at: 600 nM
Notes: 8-mer, flanks averaged, mean of replicates
Reading: higher = stronger binding
Endpoint: E-score
Strand = CCAGACGA; value = -0.224
Strand = ACCGAGAC; value = -0.116
Strand = ACAGATCA; value = -0.0247
Strand = AACAAAGC; value = 0.157
Strand = CTCGATCA; value = -0.0898
Strand = CCTGTAGA; value = 0.0614
Strand = CTATAAAC; value = 0.286
Strand = CGAAGCTC; value = -0.295
Strand = CATAGACC; value = -0.0395
Strand = AGCAGTGG; value = -0.211
Strand = GTGTACTA; value = 0.116
Strand = CCTCTCAG; value = -0.271
Strand = CACCATGC; value = -0.321
Strand = CATCCTTA; value = -0.00457
Strand = ATAGTCCA; value = 0.11
Strand = CTGTGGTA; value = 0.0557
Strand = ACGCATCC; value = -0.149
Strand = GATGGGGA; value = -0.237
Strand = AGTACTTC; value = 0.162
Strand = TACCTGAA; value = 0.248
Strand = GGGAATAA; value = 0.228

Further values, each from its own experiment
Molecule = PhoQ, residues 284 288 289 292 302 303 SCCLKL; target = PhoP, residues 12 14 15 18 19 MHTVL (Escherichia coli, UniProt P23836); test = Sort-seq, measured: YFP reporter; test system = E. coli; conditions = PhoQ-PhoP variant library, added: 10 µM Mg2+; scale = baseline: high Mg2+ state, higher = stronger signaling; endpoint = fold induction; value = 3.05

For quick reference, copied from above (series 1):
Change = A54F; value = 0.409 kcal/mol
Change = W8P; value = -0.0975 kcal/mol
Change = T42M; value = -0.0558 kcal/mol
Change = A110Q; value = -0.106 kcal/mol
